# Experimental data collected from several papers.
# ± marks the error that the study gave.
SMILES,test,system,conditions,scale,quantity,result
CCNC(=O)C1OC(n2cnc3c(N)nc(C(=O)NCCNC(=O)NC4CCN(c5ccccn5)CC4)nc32)C(O)C1O (centres unmarked),IAM chromatography,,pH 7.4,,log kIAM,0.86
CCOC(=O)CN1CCN(CC(=O)OCC)CCN(Cc2cc(-c3nc4ccccc4s3)cc(OC)c2O)CC1,,octanol/water,64Cu complex,,log D,0.9 ± 0.03
Oc1ccc2nc1CNCCNCCNC2,pH-potentiometric titration,,"protonation constant, I 0.15 M NaCl, 298 K",,log K1,11.2
Br.Br.Br.O=c1c(O)cccn1CCN1CCN(CCn2cccc(O)c2=O)CCN(CCn2cccc(O)c2=O)CC1,spectrophotometric titration,,"25 °C, ligand protonation, ionic strength 0.10 M",,log Ka2,-5.7 ± 0.1
COCCOCCOCCOc1ccc(/C=C/c2c(I)c(C)c3n2[B-](F)(F)[N+]2=C(C)C(I)=C(C)C2=C3c2cc(OC)cc(OC)c2)cc1,,DMSO,,,log molar absorptivity,4.17 M⁻¹ cm⁻¹
C[O][Pt-2]1([Cl])([Cl])([O]C(=O)CCC(=O)O)[NH2+]CC[N+]1(C)C,"RP-HPLC, C18 column",methanol/aqueous formic acid,"25 °C, extrapolated to 100% water",,log kw,1 ± 0.01
CCCCCCC(=O)C(=O)C(O)CO (centres unmarked),,,,,log membrane partition coefficient,2.23
COc1cc(OC)cc(C2=C3C(C)=C(I)C(C)=[N+]3[B-](F)(F)n3c(/C=C/c4c[nH]c5ccc([N+](=O)[O-])cc45)c(I)c(C)c32)c1,,THF,,,log molar absorptivity,4.43 M⁻¹ cm⁻¹
COc1cc2oc(-c3ccc(C(F)(F)F)cc3)cc(=O)c2c(O)c1O,spectrophotometric titration,methanol-water,"pH 7.4, 25.0 °C, together with: Fe(III)-NTA",,log stability constant,4.4
COc1cc(-c2nc3ccccc3s2)cc(CN2CCN(CC(=O)O)CCN(CC(=O)O)CC2)c1O,,octanol/water,64Cu complex,,log D,-0.68 ± 0.1
O=C(/C=C/c1ccc(O)c(O)c1)NCCCCCCCC[P+](c1ccccc1)(c1ccccc1)c1ccccc1,derivative spectrophotometry,DMPC membranes,pH 7.4,,log Kd,3.34 ± 0.02
C[O][Pt-2]([NH3+])([NH3+])([Cl])([Cl])[O]C(=O)CCC(=O)O,"RP-HPLC, C18 column",methanol/aqueous formic acid,"25 °C, extrapolated to 100% water",,log kw,0.39 ± 0.01
COc1cc2oc(-c3ccc(F)cc3)cc(=O)c2c(O)c1O,spectrophotometric titration,methanol-water,"pH 7.4, 25.0 °C, together with: Fe(III)-NTA",,log stability constant,5
CCOC(=O)c1[nH]c(C)c(/C=C/C2=[N+]3C(=C(c4cc(OC)cc(OC)c4)c4c(C)c(I)c(/C=C/c5c(C)[nH]c(C(=O)OCC)c5C)n4[B-]3(F)F)C(C)=C2I)c1C,,THF,,,log molar absorptivity,4.8 M⁻¹ cm⁻¹
COC(=O)c1ccccc1-c1c2ccc(=O)cc-2oc2cc(OCCCCC[P+](c3ccccc3)(c3ccccc3)c3ccccc3)ccc12,"shake-flask, HPLC",1-octanol/water,,,log P,0.42 ± 0.04
COc1cc2oc(-c3ccc(C(F)(F)F)cc3F)cc(=O)c2c(O)c1O,spectrophotometric titration,methanol-water,"pH 7.4, 25.0 °C, together with: Fe(III)-NTA",,log stability constant,5.7
O=C1c2ccccc2NC(c2ccc(Cl)c([N+](=O)[O-])c2)N1/N=C/c1ccc(Cl)c([N+](=O)[O-])c1 (centres unmarked),RP-HPLC,,,,log k,1.14
NC(=O)CN1CCNC(=O)c2cccc(n2)C(=O)NCCN(CC(N)=O)CCN(CC(N)=O)CC1,potentiometric titration,"water, 0.1 M KNO3","25.0 °C, species HL",,log K (stepwise protonation),7
CCNC(=O)C1OC(n2cnc3c(NCC(c4ccccc4)c4ccccc4)nc(C(=O)NCCNC(=O)NC4CCN(c5ccccn5)CC4)nc32)C(O)C1O (centres unmarked),IAM chromatography,,pH 7.4,,log kIAM,2.38
Br.Br.O=c1c(O)cccn1CCN1CCN(CCn2cccc(O)c2=O)CC1,spectrophotometric titration,,"25 °C, ligand protonation, ionic strength 0.10 M",,log Ka2,-6.1 ± 0.1
COc1ccc(NC(=O)[C@H](CCCCN)NC(=O)c2cc(NC(=O)[C@H](CCCCN)NC(=O)c3cc(NC(=O)[C@H](CCCCN)NC(=O)c4cc(NC(=O)[C@@H](N)CCCCN)ccc4OC)ccc3OC)ccc2OC)cc1C(N)=O,UV-vis λmax shift,Tris 50 mM,"pH 7.4, monomer-hexamer global fit, together with: NaCl 0.15 M",,log association constant,19.7
c1ccc(COc2cc3nc(c2)CNCCNCCNC3)cc1,pH-potentiometric titration,,"protonation constant, I 0.15 M NaCl, 298 K",,log K2,7.76
CCNC(=O)C1OC(n2cnc3c(NCC(C)C)nc(NCCNC(=O)Nc4ccncc4)nc32)C(O)C1O (centres unmarked),IAM chromatography,,pH 7.4,,log kIAM,1.86
Oc1cccc(-c2cccc(O)n2)n1.[Cl-].[Cl-].[Ru+2].c1cnc2c(c1)ccc1cccnc12.c1cnc2c(c1)ccc1cccnc12,,octanol/buffer,acidic form,,log D,0.2
O=C(O)[C@@H]1C[C@@H](O)CN1C(=O)[C@@H]1CCCN1,potentiometric titration,,"40 °C, MA2 complex, together with: Fe(III)",,log beta,23.7
C[N+]1(C)CC[NH2+][Pt-2]1([OH])([Cl])([Cl])[O]C(=O)CCC(=O)OCCO,"RP-HPLC, C18 column",methanol/aqueous formic acid,"25 °C, extrapolated to 100% water",,log kw,0.3 ± 0.06
Oc1cc2nc(c1)CNCc1cc(O)cc(n1)CNC2,potentiometric titration,0.15 M NaCl,"298 K, protonation constant",,log K5,0.98
COc1cc(OC)cc(C2=C3C(C)=C(I)C(/C=C/c4c[nH]c5ccc([N+](=O)[O-])cc45)=[N+]3[B-](F)(F)n3c(/C=C/c4c[nH]c5ccc([N+](=O)[O-])cc45)c(I)c(C)c32)c1,,dichloromethane,,,log molar absorptivity,4.45 M⁻¹ cm⁻¹
O=C(O)CN(CCNC(=O)c1cccc(C(=O)NCCN(CC(=O)O)CC(=O)O)n1)CC(=O)O,potentiometric titration,"water, 0.1 M KNO3","25.0 °C, complex species LPb, together with: Pb(NO3)2",,log β (Pb2+ complex stability),12.9
O=C1c2ccccc2NC(c2ccccc2O)N1/N=C/c1ccccc1O (centres unmarked),RP-HPLC,,,,log k,0.315
[Cl][Pd-2]1([Cl])[N+](=Cc2ccc[nH]2)Cc2cccc[n+]21,shake-flask,n-octanol/water,,,log P,1.269 ± 0.004
Oc1cccc(-c2cccc(O)n2)n1.[Cl-].[Cl-].[Ru+2].c1cnc2c(c1)c1c(c3cccnc32)OCCO1.c1cnc2c(c1)c1c(c3cccnc32)OCCO1,,octanol/buffer,acidic form,,log D,0.9
FC(F)(F)c1ccnc(-c2cc(C(F)(F)F)ccn2)c1.FC(F)(F)c1ccnc(-c2cc(C(F)(F)F)ccn2)c1.[Cl-].[Cl-].[Ru+2].c1cnc2c(c1)ccc1cccnc12,shake-flask,1-octanol/phosphate buffer,"pH 7.4, chloride salt",,log D octanol/water,negative
COc1cc(OC)cc(C2=C3C(C)=C(I)C(C)=[N+]3[B-](F)(F)n3c(/C=C/c4c[nH]c5ccccc45)c(I)c(C)c32)c1,,THF,,,log molar absorptivity,4.76 M⁻¹ cm⁻¹
COc1ccc(NC(=O)[C@H](CCCCN)NC(=O)c2cc(NC(=O)[C@H](CCCCN)NC(=O)c3cc(NC(=O)[C@H](CCCCN)NC(=O)c4cc(NC(=O)[C@@H](N)CCCCN)ccc4OC)ccc3OC)ccc2OC)cc1C(=O)NCCC(=O)O,UV-vis λmax shift,TBS,"pH 7.4, monomer-hexamer, K in M^-5",,log association constant,21.8
CCCCCCCC(=O)C(=O)C(O)CO (centres unmarked),,,concentration not given,baseline: isobutyl AI-2,log air-water partition coefficient change,1.63
COc1cc(OC)cc(C2=C3C(C)=C(I)C(C)=[N+]3[B-](F)(F)n3c(/C=C/c4cccs4)c(I)c(C)c32)c1,,THF,,,log molar absorptivity,4.06 M⁻¹ cm⁻¹
NCC(=O)N1CCC[C@H]1C(=O)N1C[C@H](O)C[C@H]1C(=O)O,potentiometric titration,,"25 °C, MAH-2 complex, together with: Fe(III)",,log beta,7.99
CCNC(=O)C1OC(n2cnc3c(NCC(c4ccccc4)c4ccccc4)nc(NCCc4ccc(CC[N+](C)(C)C)cc4)nc32)C(O)C1O (centres unmarked),IAM chromatography,,pH 7.4,,log kIAM,2.74
O=c1c(O)cccn1CCCN1CCN(CCCn2cccc(O)c2=O)CC1,spectrophotometric titration,,"25 °C, Ka3, ionic strength 0.10 M",,log proton dissociation constant,-7.94 ± 0.05
CCOC(=O)c1[nH]c(C)c(/C=C/c2c(I)c(C)c3n2[B-](F)(F)[N+]2=C(C)C(I)=C(C)C2=C3c2cc(OC)cc(OC)c2)c1C,,THF,,,log molar absorptivity,4.9 M⁻¹ cm⁻¹
COc1cc(/C=N/N2C(=O)c3ccccc3NC2c2cc(OC)c(O)c(OC)c2)cc(OC)c1O (centres unmarked),RP-HPLC,,,,log k,-0.605
CCNC(=O)C1OC(n2cnc3c(NCC(c4ccccc4)c4ccccc4)nc(NCCNC(=O)Nc4ccncc4)nc32)C(O)C1O (centres unmarked),IAM chromatography,,pH 7.4,,log kIAM,2.56
COc1cc(OC)cc(C2=C3C(C)=C(I)C(/C=C/c4c[nH]c5ccccc45)=[N+]3[B-](F)(F)n3c(/C=C/c4c[nH]c5ccccc45)c(I)c(C)c32)c1,,dichloromethane,,,log molar absorptivity,4.54 M⁻¹ cm⁻¹
